Published values of several laboratories.
Lines come from different studies, so protocols differ. ± gives the spread as reported.
HLA class I histocompatibility antigen, A alpha chain allele A*24:02: HLA class I histocompatibility antigen, A alpha chain, allele A*24:02 (Homo sapiens, UniProt P04439)

CN(C(=O)n1cnc(-c2ccc[n+]([O-])c2)c1)C1CCCCC1 — compound concentration (COS cells expressing human FAAH; cell lysate; 100 nM, 3 h, quantification limit 5 nM): not detected
O=C(/C=C/c1ccc(O)c(O)c1/C=C/c1ccc(O)c(O)c1)O[C@H](Cc1ccc(O)c(O)c1)C(=O)O — cytotoxicity (Vero E6; 12.5 µM): 0%
CC[C@@H](C)[C@H]1NC(=O)[C@@H](Cc2ccc(O)cc2)NC(=O)[C@H](CCCNC(=N)N)NC(=O)[C@H](CCSC)NC(=O)[C@H](CC(C)C)NC(=O)[C@H](CC(C)C)NC(=O)[C@H]2CCCN2C(=O)[C@H](CC(C)C)NC(=O)CNC(=O)CNC(=O)CNC1=O — Papp A to B (MDCK-MDR1; HBSS, 0.25% BSA; 2 h): 0.07 ×10⁻⁶ cm/s
O=C(Nc1cnccc1Cl)N1CCN(Cc2ccc3c(c2)OC(F)(F)O3)CC1 — compound concentration (COS cells expressing human FAAH; cell lysate; 100 nM, 1 h, quantification limit 5 nM): not detected
COc1cc2c(Oc3ccc4[nH]c(C)cc4c3F)ccnc2cc1OCC1(N)CC1 — T-wave abnormality incidence (paediatric refractory sarcoma patients; 12 mg): 9.1%
COc1ccc(C(C)(C)c2cnc(SCCOc3ccc(-n4ccnc4)cc3)n2-c2ccc(F)cc2)cc1OC — EC50 (sandwich-cultured human hepatocytes; gene induction, inducer, item: CYP3A4 mRNA; 48 h): 3.9 µM
COCCOCCOCCNC(=O)CSc1nc(C)cc(C)c1C#N — viability (MDA-MB-231; MTT; 100 µM, 72 h): 77 ± 2%
CC(C)CC(=O)OC[C@H]1O[C@@](C#N)(c2ccc3c(N)ncnn23)[C@H](O)[C@@H]1O — efflux ratio (Caco-2; 9 µM, 2 h): 2.72
O=C(Nc1cnccc1Cl)N1CCN(Cc2ccc3c(c2)OC(F)(F)O3)CC1 — supernatant concentration (COS cells expressing human FAAH; 100 nM, 24 h): 93.5 ± 3.5 nM
C[S+](C)[O-] — lowest significantly cytotoxic concentration (Vero-B4; concentration not given, 4 days; reference: mock): ≥ 3%
CC(c1ccccc1)(c1ccc(O)cc1)c1ccc(O)cc1 — early apoptotic cells (HepG2 spheroids, dissociated; annexin V-FITC/PI flow cytometry; 0.01 µM, 96 h): 5.04 ± 2.09%
COc1ccc(C[C@@H]2c3cc(Oc4cc(C[C@@H]5c6cc(O)c(OC)cc6CCN5C)ccc4O)c(OC)cc3CCN2C)cc1 — cytotoxicity (Vero E6; 25 µM): 0%
CCOC(=O)c1ccc(NC(=O)c2sc3nc(C)cc(C(F)(F)F)c3c2N)cc1 — viability (MDA-MB-231; MTT; 100 µM, 72 h): 60 ± 6%
CC[C@@H](C)[C@H]1O[C@@H](c2c(O)c(-c3ccccc3)cn(OC)c2=O)[C@H](C)C[C@@H]1C — IC50 (LLC-PK1; cytotoxicity, neutral red uptake; 48 h): > 10 µg/mL
Cc1cc(-c2ccccc2)c(C#N)c(SCC(=O)Nc2ccon2)n1 — viability (MDA-MB-231; MTT; 100 µM, 72 h): 19 ± 2%
Oc1ccc(C2(c3ccc(O)cc3)c3ccccc3-c3ccccc32)cc1 — necrotic cells (HepG2 spheroids; annexin V-FITC/PI flow cytometry; 0.1 µM, 24 h): 4.66 ± 0.8%
CC(C)[C@H]1C(=O)N[C@@H](CCCN=C(N)N)C(=O)NCC(=O)N[C@@H](CC(=O)O)C(=O)N[C@H](Cc2ccccc2)C(=O)N1C — Papp A to B (Caco-2; 20 µM): 0.0541 ×10⁻⁶ cm/s
Cc1ccc(Nc2ccnc(N3CCC(C(=O)NCCCc4ccccc4)CC3)n2)cc1 — AC50 (Vero E6, no virus; cytotoxicity, CellTiter-Glo): 11.2 µM
CC[C@H](C)[C@H](NC(=O)[C@@H]1CCCN1C(=O)[C@H](CCCCN)NC(=O)[C@@H]1CCCN1C(=O)[C@H](CCSC)NC(=O)[C@H](CCC(N)=O)NC(=O)[C@@H](N)Cc1ccc(O)cc1)C(=O)N[C@H](C(=O)N[C@@H](Cc1ccccc1)C(=O)O)[C@@H](C)O — IC50 (HLA class I histocompatibility antigen, A alpha chain allele A*24:02; binding): 1.77 µM
O=C(Nc1cccnn1)N1CCC(=Cc2cccc(Oc3ccc(C(F)(F)F)cn3)c2)CC1 — intracellular concentration (COS cells expressing human FAAH; cell lysate; 100 nM, 3 h): 18.6 ± 0.6 nM
O=c1cc(-c2ccc(O)cc2)oc2c([C@@H]3O[C@H](CO)[C@@H](O)[C@H](O)[C@H]3O)c(O)cc(O)c12 — viability (Caco-2; CCK-8; 1.25 µM, 24 h): 132%
N#C[C@@]1(n2ccc(N)nc2=O)O[C@H](CO)[C@@H](O)[C@H]1O — micronucleated cells (CHO; 62 µM, with S9): 0.44%
COc1ccccc1C(NC(C)=O)c1cc(Cl)c2cccnc2c1O (centres unmarked) — CC50 (human cells): > 20 µM
OO — cell survival (porcine IPEC-J2 cells; 400 µmol/L): 62.1%
Cc1cccc(NC(=O)c2sc3nc(C)cc(C)c3c2N)n1 — viability (MDA-MB-231; MTT; 100 µM, 72 h): 71 ± 12%
O=c1ccc2ccccc2o1 — point of departure (HepaRG 3D spheroids; phospholipidosis; 168 h, high-content imaging): 562 µM
C[C@@H](NC(=O)[C@@H](C)NC(=O)[C@H](CCCCNC(=O)c1ccc(S(=O)(=O)F)cc1)NC(=O)c1ccc(S(=O)(=O)F)cc1)C(=O)O — efflux ratio (Caco-2; 10 µM; reference: B-A over A-B): 2.19
O=S(=O)(c1ccc(O)cc1)c1ccc(O)cc1 — viable cells (HepG2 spheroids, dissociated; annexin V-FITC/PI flow cytometry; 40 µM, 24 h): 57%
CC(C)C[C@@H](NC(=O)[C@H](C)NC(=O)CNC(=O)[C@@H](NC=O)C(C)C)C(=O)N[C@@H](C)C(=O)N[C@@H](C(=O)N[C@H](C(=O)N[C@@H](C(=O)N[C@@H](Cc1c[nH]c2ccccc12)C(=O)N[C@H](CC(C)C)C(=O)N[C@@H](Cc1cccc2[nH]ccc12)C(=O)N[C@H](CC(C)C)C(=O)N[C@@H](Cc1c[nH]c2ccccc12)C(=O)N[C@H](CC(C)C)C(=O)N[C@@H](Cc1c[nH]c2ccccc12)C(=O)NCCO)C(C)C)C(C)C)C(C)C — IC50 (P388 (mouse); cytotoxicity, WST-1; 92 h): 0.00645 ± 0.00022 µM
CC[C@H](C)[C@H](NC(=O)[C@@H]1CCCN1C(=O)CNC(=O)[C@@H]1CCCN1C(=O)[C@H](Cc1ccc(O)cc1)NC(=O)[C@H](CC(C)C)NC(=O)[C@@H](N)CCCCN)C(=O)N[C@@H](CC(C)C)C(=O)N[C@@H](CCSC)C(=O)O — IC50 (HLA class I histocompatibility antigen, A alpha chain allele A*24:02; binding): 11 µM
CC(C)C[C@H]1C(=O)N[C@@H](C)C(=O)N[C@@H](CO)C(=O)N[C@@H](C(C)C)C(=O)N(C)[C@@H](CC(C)C)C(=O)N[C@H](C)C(=O)N[C@H](C(C)C)C(=O)N2CCC[C@@H]2C(=O)N[C@H](Cc2ccc(O)cc2)C(=O)NCC(=O)N1C — Papp A to B (MDCK-MDR1; HBSS, 0.25% BSA; 2 h): 0.15 ×10⁻⁶ cm/s
CN1CCN(S(=O)(=O)c2ccc(-c3cnc(N)c(C(=O)Nc4cccnc4)n3)cc2)CC1 — ATP level reduction (ARPE-19 HiBiT-fibulin-3 knock-in; cell viability, CellTiter-Glo; 1.66 µM, 48 h; reference: vehicle): 9.55%
O=NN1CC2CC(C1)c1cc3nccnc3cc12 — relative survival (TK6 expressing CYP3A4; 100 µM, 4 h, without S9; reference: vehicle): 86.5%
O=C(O[C@@H]1Cc2c(O)cc(O)cc2O[C@@H]1c1cc(O)c(O)c(O)c1)c1cc(O)c(O)c(O)c1 — cytotoxicity (Vero E6; 6.25 µM): 0%
CCOC(=O)c1ccc(NC(=O)CSc2nc(-c3ccccc3)cc(C(F)(F)F)c2C#N)cc1 — viability (MDA-MB-231; MTT; 100 µM, 72 h): 15 ± 3%
CC(C)C[C@@H](NC(=O)[C@H](C)NC(=O)CNC(=O)[C@@H](NC=O)C(C)C)C(=O)N[C@@H](C)C(=O)N[C@@H](C(=O)N[C@H](C(=O)N[C@@H](C(=O)N[C@@H](Cc1c[nH]c2ccccc12)C(=O)N[C@H](CC(C)C)C(=O)N[C@@H](Cc1ccc2[nH]ccc2c1)C(=O)N[C@H](CC(C)C)C(=O)N[C@@H](Cc1c[nH]c2ccccc12)C(=O)N[C@H](CC(C)C)C(=O)N[C@@H](Cc1c[nH]c2ccccc12)C(=O)NCCO)C(C)C)C(C)C)C(C)C — IC50 (P388 (mouse); cytotoxicity, WST-1; 92 h): 0.00391 ± 0.00083 µM
Oc1ccc(C(c2ccc(O)cc2)(C(F)(F)F)C(F)(F)F)cc1 — mitotic cells (HepG2 spheroids; flow cytometry, item: phospho-histone H3; 10 µM, 96 h; reference: solvent control): 1.59 fold
Cc1cc(C(F)(F)F)c2c(N)c(C(=O)Nc3ccon3)sc2n1 — viability (MDA-MB-231; MTT; 100 µM, 72 h): 42 ± 7%
C[C@@H]1O[C@@H](OC[C@H]2O[C@@H](Oc3c(-c4ccc(O)c(O)c4)oc4cc(O)cc(O)c4c3=O)[C@H](O)[C@@H](O)[C@@H]2O)[C@H](O)[C@H](O)[C@H]1O — viability (Caco-2; CCK-8; 1.25 µM, 24 h): 95.7%
C=C[C@@](C)(/C=C/c1ccc(O)cc1)CCC=C(C)C — cytotoxicity (Vero E6; 25 µM): 0%
Cc1c[nH]c2nccc(Oc3c(F)cc(Nc4cc(Cl)nc(N)n4)cc3F)c12 — CC50 (human cells): > 20 µM
CC(C)C[C@@H](C=O)NC(=O)[C@H](CC(C)C)NC(=O)[C@H](CC(C)C)NC(=O)OCc1ccccc1 — ATP level reduction (ARPE-19 HiBiT-fibulin-3 knock-in; cell viability, CellTiter-Glo; 1.66 µM, 48 h; reference: vehicle): -2.25%
O=C(Nc1cccnn1)N1CCC(=Cc2cccc(Oc3ccc(C(F)(F)F)cn3)c2)CC1 — supernatant concentration (COS cells expressing human FAAH; 100 nM, 24 h): 49.4 ± 2.9 nM
CC(C)C[C@H]1C(=O)O[C@H](Cc2ccc(N3CCOCC3)cc2)C(=O)N(C)[C@@H](CC(C)C)C(=O)O[C@H](C)C(=O)N(C)[C@@H](CC(C)C)C(=O)O[C@H](Cc2ccc(N3CCOCC3)cc2)C(=O)N(C)[C@@H](CC(C)C)C(=O)O[C@H](C)C(=O)N1C — Papp (MDCK-MDR1): 0.8 ×10⁻⁶ cm/s
Cc1cc(C(F)(F)F)c2c(N)c(C(=O)Nc3nccs3)sc2n1 — viability (MDA-MB-231; MTT; 100 µM, 72 h): 33 ± 6%
CCSc1nc2ccccc2n1Cc1nnc(-c2cccc(OC)c2O)o1 — viability (neutrophils; fresh heparinized human blood; 200 µg/mL, 30 min): 77.2 ± 4.2%
CC(C)C[C@H]1C(=O)N[C@H]([C@H](C)O)C(=O)N[C@@H](C)C(=O)N[C@@H](Cc2ccccc2)C(=O)N[C@H](C(=O)O)CSSC[C@H](N)C(=O)N2CCC[C@@H]2C(=O)N[C@@H](CCC(=O)O)C(=O)N[C@@H](C(C)C)C(=O)N2CCC[C@H]2C(=O)N1C — Papp A to B (MDCK-MDR1; HBSS, 0.25% BSA; 2 h): 0.18 ×10⁻⁶ cm/s
Cc1cccc(NC(=O)CSc2nc(-c3ccccc3)cc(C(F)(F)F)c2C#N)n1 — viability (MDA-MB-231; MTT; 100 µM, 72 h): 29 ± 3%
CC[C@@H](C)[C@H]1NC(=O)[C@@H]2CCCN2C(=O)[C@H](CO)NC(=O)[C@H](CC(C)C)NC(=O)[C@H](C(C)C)NC(=O)CN(C)C(=O)[C@@H](Cc2ccc(O)cc2)NC(=O)[C@@H](Cc2ccc(O)cc2)NC(=O)CSC[C@@H](C(=O)O)NC(=O)[C@@H](CC(C)C)NC1=O — Papp A to B (MDCK-MDR1; HBSS, 0.25% BSA; 2 h): 0.2 ×10⁻⁶ cm/s
O=C(O)C(F)(F)C(F)(F)C(F)(F)C(F)(F)C(F)(F)C(F)(F)C(F)(F)F — passive diffusion clearance (HEK293 wild-type; kidney; basal, blood-to-cell): 0.051 mL/min/106

For quick reference, copied from above:
Oc1ccc(C2(c3ccc(O)cc3)c3ccccc3-c3ccccc32)cc1 — necrotic cells (HepG2 spheroids; annexin V-FITC/PI flow cytometry; 0.1 µM, 24 h): 4.66 ± 0.8%
CC(C)C[C@@H](C=O)NC(=O)[C@H](CC(C)C)NC(=O)[C@H](CC(C)C)NC(=O)OCc1ccccc1 — ATP level reduction (ARPE-19 HiBiT-fibulin-3 knock-in; cell viability, CellTiter-Glo; 1.66 µM, 48 h; reference: vehicle): -2.25%
O=C(Nc1cccnn1)N1CCC(=Cc2cccc(Oc3ccc(C(F)(F)F)cn3)c2)CC1 — supernatant concentration (COS cells expressing human FAAH; 100 nM, 24 h): 49.4 ± 2.9 nM
Cc1ccc(Nc2ccnc(N3CCC(C(=O)NCCCc4ccccc4)CC3)n2)cc1 — AC50 (Vero E6, no virus; cytotoxicity, CellTiter-Glo): 11.2 µM
COc1ccc(C[C@@H]2c3cc(Oc4cc(C[C@@H]5c6cc(O)c(OC)cc6CCN5C)ccc4O)c(OC)cc3CCN2C)cc1 — cytotoxicity (Vero E6; 25 µM): 0%
O=c1cc(-c2ccc(O)cc2)oc2c([C@@H]3O[C@H](CO)[C@@H](O)[C@H](O)[C@H]3O)c(O)cc(O)c12 — viability (Caco-2; CCK-8; 1.25 µM, 24 h): 132%
CC[C@@H](C)[C@H]1NC(=O)[C@@H]2CCCN2C(=O)[C@H](CO)NC(=O)[C@H](CC(C)C)NC(=O)[C@H](C(C)C)NC(=O)CN(C)C(=O)[C@@H](Cc2ccc(O)cc2)NC(=O)[C@@H](Cc2ccc(O)cc2)NC(=O)CSC[C@@H](C(=O)O)NC(=O)[C@@H](CC(C)C)NC1=O — Papp A to B (MDCK-MDR1; HBSS, 0.25% BSA; 2 h): 0.2 ×10⁻⁶ cm/s
